Measured values of several laboratories.
Parts stem from different laboratories: compare values within a part only.
UniProt P31751, sequence (whole entry, looked up): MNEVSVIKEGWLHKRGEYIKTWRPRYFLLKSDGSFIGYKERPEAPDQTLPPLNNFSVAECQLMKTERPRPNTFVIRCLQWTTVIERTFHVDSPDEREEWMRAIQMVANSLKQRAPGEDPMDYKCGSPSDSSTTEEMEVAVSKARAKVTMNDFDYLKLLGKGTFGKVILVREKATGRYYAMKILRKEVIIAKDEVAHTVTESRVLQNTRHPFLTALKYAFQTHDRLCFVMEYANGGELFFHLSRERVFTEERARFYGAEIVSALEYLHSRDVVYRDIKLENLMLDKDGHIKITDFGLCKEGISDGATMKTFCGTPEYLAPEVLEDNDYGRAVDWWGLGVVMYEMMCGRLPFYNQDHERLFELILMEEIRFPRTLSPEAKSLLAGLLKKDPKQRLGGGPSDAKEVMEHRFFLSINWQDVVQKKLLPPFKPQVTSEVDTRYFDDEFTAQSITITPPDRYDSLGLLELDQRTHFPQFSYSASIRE
UniProt Q9Y616, sequence (whole entry, looked up): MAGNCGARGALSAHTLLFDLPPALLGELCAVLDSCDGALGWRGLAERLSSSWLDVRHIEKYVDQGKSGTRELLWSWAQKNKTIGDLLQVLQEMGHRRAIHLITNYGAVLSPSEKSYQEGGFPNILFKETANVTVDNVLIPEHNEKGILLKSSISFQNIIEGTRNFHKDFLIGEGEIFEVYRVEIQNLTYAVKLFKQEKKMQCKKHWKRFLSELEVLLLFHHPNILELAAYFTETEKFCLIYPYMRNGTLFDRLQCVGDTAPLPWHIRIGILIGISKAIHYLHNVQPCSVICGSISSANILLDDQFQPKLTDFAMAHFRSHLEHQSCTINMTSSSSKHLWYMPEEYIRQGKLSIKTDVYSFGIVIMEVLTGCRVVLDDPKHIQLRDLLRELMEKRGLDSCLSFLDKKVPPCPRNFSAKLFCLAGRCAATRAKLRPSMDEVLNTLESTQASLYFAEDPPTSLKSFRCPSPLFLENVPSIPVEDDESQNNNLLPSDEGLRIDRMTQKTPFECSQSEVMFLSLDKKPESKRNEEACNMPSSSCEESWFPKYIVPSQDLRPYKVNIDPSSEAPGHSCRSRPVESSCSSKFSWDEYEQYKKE
UniProt Q13164, sequence (whole entry, looked up): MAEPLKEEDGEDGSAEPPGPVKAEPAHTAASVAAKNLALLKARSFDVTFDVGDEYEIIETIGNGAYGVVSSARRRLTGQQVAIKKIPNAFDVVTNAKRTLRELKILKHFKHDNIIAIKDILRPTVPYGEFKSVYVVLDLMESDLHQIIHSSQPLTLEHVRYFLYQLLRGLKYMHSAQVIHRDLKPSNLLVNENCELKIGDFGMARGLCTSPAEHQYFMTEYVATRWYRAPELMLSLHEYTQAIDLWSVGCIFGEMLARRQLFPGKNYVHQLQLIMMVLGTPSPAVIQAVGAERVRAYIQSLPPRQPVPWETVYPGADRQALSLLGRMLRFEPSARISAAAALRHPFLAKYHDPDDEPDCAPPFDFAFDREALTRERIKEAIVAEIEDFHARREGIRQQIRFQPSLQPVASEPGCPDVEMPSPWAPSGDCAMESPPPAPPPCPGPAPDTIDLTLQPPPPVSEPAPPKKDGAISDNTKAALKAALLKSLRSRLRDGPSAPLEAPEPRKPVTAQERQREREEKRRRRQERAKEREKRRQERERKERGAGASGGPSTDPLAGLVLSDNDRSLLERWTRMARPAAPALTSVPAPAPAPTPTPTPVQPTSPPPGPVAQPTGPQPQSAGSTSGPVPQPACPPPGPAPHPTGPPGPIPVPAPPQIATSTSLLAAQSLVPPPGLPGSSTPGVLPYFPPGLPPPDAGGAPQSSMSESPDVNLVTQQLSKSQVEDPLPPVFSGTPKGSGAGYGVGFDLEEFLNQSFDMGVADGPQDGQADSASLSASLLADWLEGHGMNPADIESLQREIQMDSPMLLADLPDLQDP
UniProt O75676, sequence (whole entry, looked up): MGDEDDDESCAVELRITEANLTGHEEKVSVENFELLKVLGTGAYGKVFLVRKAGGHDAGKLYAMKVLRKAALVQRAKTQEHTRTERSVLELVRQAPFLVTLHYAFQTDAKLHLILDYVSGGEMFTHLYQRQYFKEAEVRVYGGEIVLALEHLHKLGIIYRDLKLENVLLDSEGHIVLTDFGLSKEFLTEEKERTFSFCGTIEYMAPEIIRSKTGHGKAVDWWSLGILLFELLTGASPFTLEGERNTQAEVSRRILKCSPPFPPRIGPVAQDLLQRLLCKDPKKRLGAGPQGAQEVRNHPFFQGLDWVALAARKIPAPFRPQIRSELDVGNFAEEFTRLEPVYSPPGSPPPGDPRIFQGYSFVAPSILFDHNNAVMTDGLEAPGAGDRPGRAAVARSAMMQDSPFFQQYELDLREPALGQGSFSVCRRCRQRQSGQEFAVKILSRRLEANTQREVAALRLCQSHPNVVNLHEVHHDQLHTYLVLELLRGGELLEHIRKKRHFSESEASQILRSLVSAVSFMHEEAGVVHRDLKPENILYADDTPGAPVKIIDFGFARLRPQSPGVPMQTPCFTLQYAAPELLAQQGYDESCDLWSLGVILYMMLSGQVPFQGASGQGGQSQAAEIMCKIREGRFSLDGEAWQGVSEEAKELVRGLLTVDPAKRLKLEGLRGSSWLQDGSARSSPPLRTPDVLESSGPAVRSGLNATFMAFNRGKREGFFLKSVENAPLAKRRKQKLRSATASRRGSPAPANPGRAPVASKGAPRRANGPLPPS
UniProt Q00535, sequence (whole entry, looked up): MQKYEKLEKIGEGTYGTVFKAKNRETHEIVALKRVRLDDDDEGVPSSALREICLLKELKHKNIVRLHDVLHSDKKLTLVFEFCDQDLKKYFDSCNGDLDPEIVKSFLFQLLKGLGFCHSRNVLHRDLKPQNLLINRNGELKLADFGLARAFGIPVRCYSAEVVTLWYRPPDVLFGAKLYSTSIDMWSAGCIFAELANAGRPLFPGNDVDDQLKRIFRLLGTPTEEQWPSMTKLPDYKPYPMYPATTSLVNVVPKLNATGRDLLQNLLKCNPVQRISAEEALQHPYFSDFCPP
UniProt P49761, sequence (whole entry, looked up): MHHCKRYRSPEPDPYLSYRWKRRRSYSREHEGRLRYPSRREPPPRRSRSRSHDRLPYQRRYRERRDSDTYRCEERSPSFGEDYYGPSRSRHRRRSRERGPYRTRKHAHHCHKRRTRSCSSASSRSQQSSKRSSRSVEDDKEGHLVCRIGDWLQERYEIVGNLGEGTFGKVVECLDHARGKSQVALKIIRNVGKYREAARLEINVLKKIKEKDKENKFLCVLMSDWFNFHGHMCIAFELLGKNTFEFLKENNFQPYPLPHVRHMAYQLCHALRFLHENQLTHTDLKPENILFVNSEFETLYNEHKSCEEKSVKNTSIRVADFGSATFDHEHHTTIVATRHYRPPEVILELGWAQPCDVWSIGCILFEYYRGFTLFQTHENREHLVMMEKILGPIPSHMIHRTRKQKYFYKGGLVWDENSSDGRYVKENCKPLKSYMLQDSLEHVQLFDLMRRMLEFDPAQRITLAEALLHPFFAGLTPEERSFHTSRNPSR
UniProt Q15208, sequence (whole entry, looked up): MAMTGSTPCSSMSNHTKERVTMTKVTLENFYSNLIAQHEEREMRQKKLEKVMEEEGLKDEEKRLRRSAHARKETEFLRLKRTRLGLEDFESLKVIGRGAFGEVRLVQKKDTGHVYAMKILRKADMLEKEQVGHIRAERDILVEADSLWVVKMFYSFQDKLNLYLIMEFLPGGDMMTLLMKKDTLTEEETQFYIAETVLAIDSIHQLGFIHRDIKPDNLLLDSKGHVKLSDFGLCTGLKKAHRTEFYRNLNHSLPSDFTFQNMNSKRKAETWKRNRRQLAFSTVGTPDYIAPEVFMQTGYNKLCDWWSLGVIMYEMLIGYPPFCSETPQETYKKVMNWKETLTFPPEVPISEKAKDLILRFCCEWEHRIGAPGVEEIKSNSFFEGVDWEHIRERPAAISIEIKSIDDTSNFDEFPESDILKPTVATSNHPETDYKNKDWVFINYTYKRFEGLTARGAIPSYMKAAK
UniProt Q9HAZ1, sequence (whole entry, looked up): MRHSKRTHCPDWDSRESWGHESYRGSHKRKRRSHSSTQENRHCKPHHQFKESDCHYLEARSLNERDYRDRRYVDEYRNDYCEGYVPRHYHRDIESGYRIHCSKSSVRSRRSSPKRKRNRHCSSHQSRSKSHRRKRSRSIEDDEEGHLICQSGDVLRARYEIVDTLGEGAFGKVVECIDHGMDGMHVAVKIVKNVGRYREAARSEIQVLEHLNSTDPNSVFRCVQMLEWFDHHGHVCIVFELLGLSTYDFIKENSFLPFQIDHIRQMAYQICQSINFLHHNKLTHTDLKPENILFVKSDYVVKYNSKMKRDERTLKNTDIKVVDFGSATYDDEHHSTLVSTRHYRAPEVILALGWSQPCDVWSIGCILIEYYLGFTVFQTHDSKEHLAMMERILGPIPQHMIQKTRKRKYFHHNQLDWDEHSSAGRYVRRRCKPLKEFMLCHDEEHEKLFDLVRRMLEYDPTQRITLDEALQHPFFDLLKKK

Block 1
Host: mouse
Sample: microsomes or S9
Tested at: 2 µM
Time: 0.5 h
SMILES	remaining compound
Cc1nnc2c(Nc3cccc(CNC(=O)OC(C)(C)C)c3)nc3cc(C(=O)Nc4ccccc4)ccc3n12	92%
COC(C)C(C)C(=O)O[C@H]1Cc2cc3ccc(=O)oc3cc2OC1(C)C (stereo partly shown)	13.9%
CCC(NC(=O)C1=NNC(=O)CC1)c1ncccc1C (stereo not shown)	90.4%
COc1cc(=O)n(C)cc1C(=O)N1CCc2[nH]c(=O)c(C#N)cc2C1	80.1%
N#Cc1nc(-c2ccccc2F)oc1NCC1CCCO1 (stereo not shown)	9.17%
CCN(CC)S(=O)(=O)c1cc(Br)cnc1N	10.3%
CCN(CC)c1cc(CCC(=O)N(C)CCCc2c(C)nn(C)c2C)ccn1	9.29%

Block 2
Target: Calcium/calmodulin-dependent protein kinase type II subunit alpha (CAMK2A, Homo sapiens, UniProt Q9UQM7)
UniProt Q9UQM7, sequence (whole entry, looked up): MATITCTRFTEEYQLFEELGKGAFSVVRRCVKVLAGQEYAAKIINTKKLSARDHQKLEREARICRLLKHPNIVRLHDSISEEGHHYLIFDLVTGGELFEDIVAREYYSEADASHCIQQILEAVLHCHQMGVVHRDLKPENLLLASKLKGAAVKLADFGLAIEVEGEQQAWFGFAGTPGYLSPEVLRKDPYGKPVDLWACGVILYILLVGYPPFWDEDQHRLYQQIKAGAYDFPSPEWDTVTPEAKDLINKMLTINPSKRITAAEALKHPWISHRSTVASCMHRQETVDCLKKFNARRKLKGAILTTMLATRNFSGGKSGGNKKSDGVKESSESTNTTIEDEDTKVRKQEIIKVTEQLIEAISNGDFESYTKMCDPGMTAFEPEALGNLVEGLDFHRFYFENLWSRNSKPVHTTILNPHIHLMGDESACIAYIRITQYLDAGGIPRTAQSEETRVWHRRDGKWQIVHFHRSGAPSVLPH
Effect on: enzyme activity
Action: inhibitor
Tested at: 10 µM
Compound	inhibition
O=C(O)c1c(O)cccc1O	4%
COc1c2c(cc3c1-c1c(cc4c(c1OC)OCO4)C[C@H](C)[C@H](C)C3)OCO2	6%
Cc1nnc(C(C)C)n1[C@@H]1C[C@H]2CC[C@@H](C1)N2CC[C@H](NC(=O)C1CCC(F)(F)CC1)c1ccccc1	-11%
COc1cc(/C=C/C(=O)O[C@H]2[C@H](O)[C@@H](CO)O[C@@]2(CO)O[C@H]2O[C@H](COC(=O)c3ccc(O)cc3)[C@@H](O)[C@H](O)[C@H]2O)cc(OC)c1O	-9%
CC(C)C[C@H](NC(=O)CN)C(=O)O	10%
C[C@H](CCC(=O)O)[C@H]1CC[C@H]2[C@@H]3CC[C@@H]4C[C@H](O)CC[C@]4(C)[C@H]3C[C@@H](O)[C@]12C	-43%
Cc1nc2n(c(=O)c1CCN1CCC(c3noc4cc(F)ccc34)CC1)CCCC2	-4%
CCCCOc1ccc(CC(=O)NO)cc1	-7%
CCN1CCC[C@H]1CNC(=O)c1cc(S(N)(=O)=O)ccc1OC	-2%
CN1Cc2c(ccc3c2OCO3)[C@@]2(C)[C@@H](O)Cc3cc4c(cc3[C@@H]12)OCO4	-2%

Block 3
Compound: CCCNC(=O)Nc1ccc(Oc2ncnc3cc(OC)c(OC)cc23)cc1Cl
Effect on: enzyme activity
Action: inhibitor
Tested at: 0.5 µM
Reference: control
target	remaining activity [%]
MINK1 (Homo sapiens, UniProt Q8N4C8)	90.1
CAMK4 (Homo sapiens, UniProt Q16566)	99.1
NEK3 (Homo sapiens, UniProt P51956)	93.8
MET (Homo sapiens, UniProt P08581)	73.6
TXK (Homo sapiens, UniProt P42681)	101
GRK4 (Homo sapiens, UniProt P32298)	94.4
CLK3 (Homo sapiens, UniProt P49761)	98.8
RPS6KA4 (Homo sapiens, UniProt O75676)	98.5
TLK2 (Homo sapiens, UniProt Q86UE8)	99.5
Cyclin-dependent kinase 9, with cyclin K (CDK9, Homo sapiens, UniProt P50750)	103
CLK4 (Homo sapiens, UniProt Q9HAZ1)	94.2
PAK3 (Homo sapiens, UniProt O75914)	94.7
AKT2 (Homo sapiens, UniProt P31751)	89.7
DCLK2 (Homo sapiens, UniProt Q8N568)	96.4
Cyclin-dependent kinase 1, with cyclin A (CDK1, Homo sapiens, UniProt P06493)	97.7

Block 4
SMILES: O=C(O)[C@H]1[C@H](Cn2nnc3ccccc3c2=O)CC[C@@H]1C(=O)c1ccc(OCCC2CCOCC2)cc1
Effect on: cell-free assay
Method: competition with immobilised ligand
Tested at: 1 µM
target	remaining binding [%]
CSNK1A1L (Homo sapiens, UniProt Q8N752)	100
STK38 (Homo sapiens, UniProt Q15208)	88
IRAK3 (Homo sapiens, UniProt Q9Y616)	77
MAPK7 (Homo sapiens, UniProt Q13164)	100
HIPK3 (Homo sapiens, UniProt Q9H422)	99
CSF1R (Homo sapiens, UniProt P07333)	81
CSNK2A1 (Homo sapiens, UniProt P68400)	100
ACVR1B (Homo sapiens, UniProt P36896)	74
PIP5K1A (Homo sapiens, UniProt Q99755)	88
CDK5 (Homo sapiens, UniProt Q00535)	100
ROCK1 (Homo sapiens, UniProt Q13464)	87

Excerpt of the above (block 3):
target	remaining activity [%]
DCLK2 (Homo sapiens, UniProt Q8N568)	96.4
TLK2 (Homo sapiens, UniProt Q86UE8)	99.5
NEK3 (Homo sapiens, UniProt P51956)	93.8
CLK4 (Homo sapiens, UniProt Q9HAZ1)	94.2
AKT2 (Homo sapiens, UniProt P31751)	89.7
CAMK4 (Homo sapiens, UniProt Q16566)	99.1
